Measured values collected from several papers.
Each line is one published result; not all experiments were run side by side. Values joined by “and” are separate records of one study, mostly repeats; a detail may differ. Converted amounts (≈) assume the structure as drawn.

Cc1c(CN(C)C(=O)/C=C/c2cnc3c(c2)CC(N)C(=O)N3)oc2ccccc12 (centres unmarked) — MIC (Escherichia coli; broth microdilution; AR-0541): 8 µg/mL (≈ 20.5 µM)
COc1cc(C(=O)O)ccc1NC(=O)c1ccc(NC(=O)c2ccc(NC(=O)[C@H](Cc3c[nH]nn3)NC(=O)c3ccc(NC(=O)/C(C)=C/c4ccc(O)cc4)cc3)cc2)cc1O — MIC (Salmonella enterica serovar Kentucky; broth microdilution; ciprofloxacin-resistant): 1 µg/mL (≈ 1.19 µM)
CC[C@@H]([C@H](C)O)n1ncn(-c2ccc(N3CCN(c4ccc(OC[C@@H]5CO[C@@](Cn6cncn6)(c6ccc(F)cc6F)C5)cc4)CC3)cc2)c1=O — translation activity (Trypanosoma cruzi; reporter mRNA translation, inhibitor, refers to: Renilla luciferase mRNA; cell-free extract; concentration not given; relative to: positive over negative control): 102% and 150%
COc1cc(C(=O)Nc2ccc(C(=O)O)cc2)ccc1NC(=O)c1ccc(NC(=O)[C@H](Cc2c[nH]nn2)NC(=O)c2ccc(NC(=O)/C(C)=C/c3ccc(O)cc3)cc2)cc1 — MIC (Salmonella Typhimurium; broth microdilution; TA100): 2 µg/mL (≈ 2.43 µM)
CC[C@H]1OC(=O)[C@H](C)[C@@H](OC(=O)Cc2c(F)cc([N+](=O)[O-])cc2F)[C@H](C)[C@@H](O[C@@H]2O[C@H](C)C[C@H](N(C)C)[C@H]2O)[C@](C)(OC)C[C@@H](C)C(=O)[C@H](C)[C@@H](O)[C@]1(C)O — MIC (Cryptococcus neoformans; microbial growth; ATCC208821): > 32 µg/mL
CCCC/C=C/C(=O)N[C@@H](Cc1cc(F)cc(F)c1)C(=O)N[C@@H]1C(=O)N2CCC[C@H]2C(=O)N2CC[C@H](C)C[C@H]2C(=O)N[C@@H](C)C(=O)N2CCC[C@H]2C(=O)O[C@H]1C — MIC (Streptococcus pneumoniae; microbial growth, broth dilution): < 2e-05 µg/mL
COc1cc(C(=O)O)ccc1NC(=O)c1ccc(NC(=O)c2ccc(NC(=O)[C@H](Cc3c[nH]nn3)NC(=O)c3ccc(NC(=O)/C(C)=C/c4ccc(O)cc4)cc3)cc2)c(OC)c1 — MIC (Salmonella enterica serovar Kentucky; broth microdilution; ciprofloxacin-sensitive): 0.5 µg/mL (≈ 0.586 µM)
CCCC/C=C/C(=O)N[C@@H](Cc1cc(F)cc(F)c1)C(=O)N[C@H]1COC(=O)[C@@H]2CCCN2C(=O)[C@H](C)NC(=O)[C@@H]2C[C@@H](C(C)C)CCN2C(=O)[C@@H]2CCCN2C1=O — MIC (Streptococcus pneumoniae; microbial growth, broth dilution): 0.098 µg/mL (≈ 0.123 µM)
CC[C@H]1OC(=O)[C@H](C)[C@@H](O[C@H]2C[C@@](C)(OC)[C@@H](O)[C@H](C)O2)[C@H](C)[C@@H](O[C@@H]2O[C@H](C)C[C@H](N(C)C)[C@H]2O)[C@](C)(OC)C[C@@H](C)C(=O)[C@H](C)[C@@H](O)[C@]1(C)O — MIC (Cryptococcus neoformans; microbial growth; ATCC208821): > 32 µg/mL
O=[N+]([O-])c1c(Br)c(Cl)c2cccnc2c1O — MIC (Streptococcus pneumoniae; microbial growth, broth dilution; ATCC49619): 4 µg/mL (≈ 13.2 µM)
CC[C@H]1OC(=O)[C@H](C)[C@@H](OC(=O)Cc2cccc([N+](=O)[O-])c2)[C@H](C)[C@@H](O[C@@H]2O[C@H](C)C[C@H](N(C)C)[C@H]2O)[C@](C)(OC)C[C@@H](C)C(=O)[C@H](C)[C@@H](O)[C@]1(C)O — MIC (Cryptococcus neoformans; microbial growth; ATCC208821): > 32 µg/mL
COc1nc(C(=O)Nc2ccc(C(=O)O)nc2OC)ccc1NC(=O)c1ccc(NC(=O)[C@H](Cc2c[nH]nn2)NC(=O)c2ccc(NC(=O)/C(C)=C/c3ccc(O)cc3)cc2)cc1 — MIC (Salmonella enterica serovar Kentucky; broth microdilution; ciprofloxacin-resistant): 16 µg/mL (≈ 18.7 µM)
CN1CCC(OC(=O)c2ccc(Br)cc2)CC1.Cl — translation activity (Trypanosoma cruzi; reporter mRNA translation, inhibitor, refers to: capped polyadenylated Renilla luciferase mRNA; cell-free extract; concentration not given; relative to: positive over negative control): 97.8% and 99.3% and 111% and 109%
CC[C@H]1OC(=O)[C@H](C)[C@@H](OC(=O)Cc2ccc3c(c2)OCO3)[C@H](C)[C@@H](O[C@@H]2O[C@H](C)C[C@H](N(C)C)[C@H]2O)[C@](C)(OC)C[C@@H](C)C(=O)[C@H](C)[C@@H](O)[C@]1(C)O — MIC (Cryptococcus neoformans; microbial growth; ATCC208821): > 32 µg/mL

A few entries again:
CC[C@H]1OC(=O)[C@H](C)[C@@H](OC(=O)Cc2cccc([N+](=O)[O-])c2)[C@H](C)[C@@H](O[C@@H]2O[C@H](C)C[C@H](N(C)C)[C@H]2O)[C@](C)(OC)C[C@@H](C)C(=O)[C@H](C)[C@@H](O)[C@]1(C)O — MIC (Cryptococcus neoformans; microbial growth; ATCC208821): > 32 µg/mL
